# Published values pooled from the literature.
# A part holds a random share of what one study measured. Substitutions count along the parent as printed.

# Set 1
# Target: RNA binding protein fox-1 homolog 2, RRM domain, GST-SBP tag (RBFOX2, Homo sapiens, UniProt O43251-10, residues 100-194)
# Technique: RNA Bind-n-Seq
# Form: RNA
# Medium: in vitro
# Tested at: 365 nM
# Notes: natural RNA segment, single round, ends assumed
# Baseline: no-protein control
# Direction: higher = stronger binding
# Shared flanks, not repeated: GGGAGUUCUACAGUCCGACGAUC … UGGAAUUCUCGGGUGCCAA
# Construct (chain): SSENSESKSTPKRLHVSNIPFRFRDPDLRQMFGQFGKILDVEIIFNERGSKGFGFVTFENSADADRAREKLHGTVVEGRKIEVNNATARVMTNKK
Sequence,RBNS enrichment (R)
UAUCACCAUUAAAUUAAGACCUUAAUGGUAAACUGAGGUUACUGAUGCAUCAUCACAUUUAAGUAAAAAUAAUUUCAUGUUUUCCCCAAAGAAAAAUUAAGCCUCCCAAU,0.495
AUGGAUGACAUCUCAUUGAUAGUACCCAGAUGUUGGUGGCUUUCUGAGUUGCCUGUUUACUGUUGAUGCAAUUGUUUUGAUUUUUAACUAAAUGCAAAUACCUUCCUGCC,0.446
AAAAAUUAGCUGGGCAUGAUGGCAUGCUCCUGUGGUCCCAGCUACUUGGGAGGCUGAGGCAGGAGGAUCACUUGGUCCCAGGAGUUUGAGGCGACAGUGAGCUAGGAUCG,7.01
UGGUCUGCACAUGAUACUCAGCCUAAAGACCAUGGAUCGCUUUGAUGACCACAAGGGCCCCACCAUCACUUUGACCCAGAUUGUGUGACAUACACCUGAGAGGAAUUGAG,1.19
UUCCUCCCAGGAGCCCAUGCUCAGGCCUCCCACACCAGGACCUCAGGCUGAGAGCUGAGCAGAGCACACUAGGCAGGGAAAGCCAUGUGGGUCUCCAGUCCUGUUUGCCU,0.672
UAAAGAUCAAAUUAUUUGAUUAUUGCUAGACAUUUCUAUACUCUGUUGUAACACUGAGGUAUCUCAUUUGCUCAUGUUAAUUUUUUUCUAAAUAAAUGGACAAAAAAUGA,0.309
UGAUUUGAAUUAAUACACACAAUAUCUGAGACACUUACACUUUUCAAAAGAUUUGUGUAUGCAUUGCCUAAUUAGAGUAGGGGGAGAAGGGCAACUAUUAUUAUCCCUAU,0.381
AAUCAGAGUAAUCAUAAUGCAGGGGAGACAUUCAAAUUAGAGACAAGGGAGAAGCAAUGCUGAGGAAGACCCUAGAUAGAGCUCAUUUUACUCCACCUAAUCGUUAUAUC,1.14

# Set 2
# Target: CCNB1, cyclin fold, Cln2 fusion (human)
# Technique: yeast growth competition, sequencing
# Medium: yeast
# Notes: strong parent motif
# Baseline: not given
# Direction: higher = stronger binding
# Starting sequence: INSM1 docking peptide (human); PKAIRKLHFEDEV
Variant,normalised enrichment score
PKSIRKLHFEDEV [A3S],0.742
PKAIRKFHFEDEV [L7F],-0.318
PTAIRKLHFEDEV [K2T],3.79
PWAIRKLHFEDEV [K2W],2.9
PKAHRKLHFEDEV [I4H],0.539
PGAIRKLHFEDEV [K2G],3.78
PKAIRKLHFEREV [D11R],0.687
PKAIRKLMFEDEV [H8M],2.29
PKAIQKLHFEDEV [R5Q],1.57
PKAIRKLHFEDIV [E12I],1.33
PKAIRKLHVEDEV [F9V],0.206
PKAIRKLHFFDEV [E10F],1.29
PKAIRKYHFEDEV [L7Y],0.0539
PKAYRKLHFEDEV [I4Y],0.357
PKAIRKLHFEQEV [D11Q],1.27
PKAIRKLEFEDEV [H8E],3.38
PLAIRKLHFEDEV [K2L],2.74
PKAQRKLHFEDEV [I4Q],1.8
PKANRKLHFEDEV [I4N],2.05
PKYIRKLHFEDEV [A3Y],2.04
PKWIRKLHFEDEV [A3W],3.35
PKAIRKLHCEDEV [F9C],-0.112
PKAIRKLHFEGEV [D11G],1.56
PKATRKLHFEDEV [I4T],1.31
PKAIRKLWFEDEV [H8W],1.61

# Set 3
# Target: ABI1, truncated, D143A, DHFR fusion (Arabidopsis thaliana)
# Technique: DHFR PCA, deep sequencing
# Medium: yeast
# Notes: methotrexate growth selection, single substitutions
# Together with: (+)-ABA 17 µM
# Baseline: wild-type fitted maximum
# Direction: higher = stronger binding
# Starting sequence: PYL1, truncated, DHFR fusion (Arabidopsis thaliana); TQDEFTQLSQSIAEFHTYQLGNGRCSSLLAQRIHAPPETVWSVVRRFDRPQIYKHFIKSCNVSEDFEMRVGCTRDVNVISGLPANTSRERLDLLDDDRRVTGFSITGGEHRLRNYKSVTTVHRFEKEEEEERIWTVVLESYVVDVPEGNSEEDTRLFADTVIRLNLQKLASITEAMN
Variant,relative binding score [%]
E127R,85.2
Q167C,75.6
P37D,39.5
H122I,1.84
T6Y,71.7
N77H,97.1
I33C,61.9
I172R,29
T173A,85.3
T86M,64.4
G71H,12.1
F15W,80.1
A30R,79.1
N149A,46.5
R111S,15.1
A13C,71.7
E152W,72.4
C25T,84.7

# Mixed results
Molecule,target,assay,system,setting,scale,measurement,value
"PhoQ, residues 284 288 289 292 302 303 QWGLFV","PhoP, residues 12 14 15 18 19 NYFTV (Escherichia coli, UniProt P23836)","Sort-seq, item: YFP reporter",E. coli,"PhoQ-PhoP variant library, together with: 10 µM Mg2+","baseline: high Mg2+ state, higher = stronger signaling",fold induction,1.72

# Some of these lines once more (set 3):
Variant,relative binding score [%]
T6Y,71.7
H122I,1.84
I172R,29
A13C,71.7
